Measurements of several laboratories.
Each line is one published result; not all experiments were run side by side.
Cell line: LS174T

Compound | assay | conditions | scale | endpoint | value
CSCC[C@@H]1NC(=O)[C@@H](NC(=O)[C@H](CO)NC(=O)[C@@H](NC(=O)CNC(=O)CNC(=O)CCCCCN)C(C)C)CSSC[C@@H](C(=O)N[C@@H](CCC(=O)O)C(=O)N[C@@H](CC(N)=O)C(=O)N[C@@H](CC(N)=O)C(=O)N[C@@H](CC(C)C)C(=O)O)NC(=O)[C@H](C(C)C)NC(=O)[C@@H]2CCCN2C(=O)[C@H](CO)NC(=O)[C@H]([C@@H](C)O)NC(=O)[C@H](CCC(N)=O)NC1=O | labelled peptide binding | concentration not given, 1 h | reference: unlabelled native peptide | inhibition | 49%
CCCN1CCN(c2ccc(-c3cncc(Cl)c3N3CCC4(CCNC4=O)CC3)cc2)CC1 | WNT reporter gene, inhibitor, TCF/LEF luciferase |  |  | IC50 | 20 nM
c1ccc([I+]c2ccccc2)cc1 | cell growth, trypan blue count | 48 h |  | IC50 | ~10000 nM
COc1cnc2cccc(N3CCc4c(cc(Cn5ccnc5C)cc4-c4cn(C)nc4C(F)(F)F)C3=O)c2c1 | cell growth, inhibitor | 120 h |  | EC50 | 339 nM
Cc1c(C(=O)O)ccc2c3n(nc12)[C@@H]1[C@H](C3)N(CC2CC2)[C@@]2(C(=O)Nc3cc(Cl)ccc32)[C@H]1c1cccc(Cl)c1F | cell growth, alamarBlue | unbound |  | GI50 | 0.32 nM
[Cl-].c1csc([I+]c2cccs2)c1 | Western blot, measured: p27 | concentration not given, 24 h |  | protein level | increased
CCCN1CCN(c2cccc(-c3cnccc3N3CCCC4(CCNC4=O)C3)c2)CC1 (stereo not drawn) | WNT reporter gene, inhibitor, TCF/LEF luciferase |  |  | IC50 | > 5000 nM
CCn1cc(-c2cc(Cn3ccoc3=N)cc3c2CCN([C@@H](C)c2cc(OC)ccn2)C3=O)c(C(F)(F)F)n1 | cell growth, inhibitor | 120 h |  | EC50 | 67.8 nM
COc1cccc2c1C(=O)c1c(O)c3c(c(O)c1C2=O)C[C@@](O)(C(=O)CO)C[C@@H]3O[C@H]1C[C@H](N)[C@H](O)[C@H](C)O1 | cytotoxicity, WST-1 | 72 h, highest tested concentration |  | Emax | 88.5%

Excerpt of the above:
Compound | assay | conditions | scale | endpoint | value
CCn1cc(-c2cc(Cn3ccoc3=N)cc3c2CCN([C@@H](C)c2cc(OC)ccn2)C3=O)c(C(F)(F)F)n1 | cell growth, inhibitor | 120 h |  | EC50 | 67.8 nM
